Results of several laboratories.
Lines come from different studies, so protocols differ. “And” joins repeats or separate records; there may be more than shown. ± gives the spread as reported.
PTGS2: Prostaglandin G/H synthase 2 (PTGS2, Homo sapiens, UniProt P35354)
Coelenterazine h 2-monooxygenase: Coelenterazine h 2-monooxygenase (Renilla reniformis, UniProt P27652)
Protein-S-isoprenylcysteine O-methyltransferase: Protein-S-isoprenylcysteine O-methyltransferase (Homo sapiens, UniProt O60725)
USP5: Ubiquitin carboxyl-terminal hydrolase 5 (USP5, Homo sapiens, UniProt P45974)

SMILES | tested on | assay | system | conditions | endpoint | value
Cc1ccc(-c2nn(-c3ccc(S(C)(=O)=O)cc3)cc2C=NN=c2[nH]c(-c3ccc(Br)cc3)cs2)cc1 (mixture of isomers) | PTGS2 | enzyme activity | – | 1 µM | inhibition | 52.7%
C=CC(=O)N1Cc2nc(-c3cc(-c4cc(Cl)cnc4Cl)c(F)cc3F)n(-c3ccncn3)c2C1 | NEK8 (Homo sapiens, UniProt Q86SG6) | cell-free assay, inhibitor | – | 1 µM | inhibition | -3.4%
Cc1ccc2c(c1)sc(-c1ccc(N(C)C)cc1)[n+]2C | Coelenterazine h 2-monooxygenase | luciferase activity, inhibitor, luminescence counter-screen | – | concentration not given, test 3 new dilution | inhibition | 86.5% and 88.2%
Cc1ccc(-c2nn(-c3ccc(S(C)(=O)=O)cc3)cc2C=NN=c2[nH]c(-c3ccc([N+](=O)[O-])cc3)cs2)cc1 | PTGS2 | enzyme activity | – | 0.01 µM | inhibition | 14%
C/C=C(/C)C(=O)O[C@@H]1C=C(C)CC[C@]2(O)[C@@H](C(C)C)CC(=O)[C@]12C | PTGS2 | enzyme activity, inhibitor | – | 0.12 µg/mL | inhibition | 0%
C[Si](C)(C)C[C@H](CN)CC(=O)O | CCKBR (Homo sapiens, UniProt P32239) | cell-free assay, inhibitor | – | 250 µM | inhibition | 1%
CN(C)C/C=C/C(=O)Nc1ccc2nc(NCCCCCN(C)C)nc(NCCCCCCN(C)C)c2c1 | PRMT6 (Homo sapiens, UniProt Q96LA8) | enzyme activity, inhibitor, radiometric | – | 10 µM | inhibition | 80%
C=CC(=O)Nc1cccc(-c2cnc3[nH]cc(C(=O)NC(C)(C)C)c3n2)c1 | GRK6 (Homo sapiens, UniProt P43250) | enzyme activity, inhibitor | – | 0.1 µM | inhibition | 7%
CC=C(C)C(=O)OC1CC2C(C=C(C)C3C(OC(C)=O)CC(=O)C13C)OC(=O)C2C (stereo not drawn) | PTGS2 | enzyme activity, inhibitor | – | 0.49 µg/mL | inhibition | 0%
COc1ccc(C2CC(Nc3ccc(-c4ccc(NC5=NOC(c6ccc(OC)cc6)C5)cc4)cc3)=NO2)cc1 (stereo not drawn) | cyclooxygenase, rabbit | – | distal colon mucosa microsomes | 10 µM | inhibition | 79%
CN1C=C/C(=C\c2cc[n+](C)c3ccccc23)c2ccccc21 | Coelenterazine h 2-monooxygenase | luciferase activity, inhibitor, luminescence counter-screen | – | concentration not given, test 1 | inhibition | 104% and 99.7%
C/C=C/C(=O)Nc1ccc2nc(NCCCCCN(C)C)nc(NCCCCCCN(C)C)c2c1 | DNA (cytosine-5)-methyltransferase 3A, with DNMT3L (DNMT3A, Homo sapiens, UniProt Q9Y6K1) | enzyme activity | – | 10 µM | inhibition | -80%
O=C(Oc1cccc(CSc2ncccn2)c1)c1ccc([N+](=O)[O-])cc1 | Apelin receptor (APLNR, Homo sapiens, UniProt P35414) | β-arrestin recruitment, antagonist, PRESTO-Tango | – | concentration not given | inhibition | 59.1 ± 5.3%
O=C(COCC(F)F)Nc1ccc([C@H]2[C@@H](F)[C@@H](F)C[C@@H](F)[C@H]2F)cc1 | – | hepatocyte stability | cryopreserved human hepatocytes | 1 µM | hepatic clearance | 19 mL/min/kg
CCCCCCCCN(CCC(=O)Nc1ccccc1)C(=O)c1cnco1 | Protein-S-isoprenylcysteine O-methyltransferase | enzyme activity | Sf9 membranes | 50 µM, added: [3H]S-adenosylmethionine, biotin-farnesyl-L-cysteine | inhibition | 56%
O=C1CO[C@H](CNC(=O)C2(c3ccc(Cl)cc3)CC2)CN1C1Cc2ccccc2C1 | CXCR3 (Homo sapiens, UniProt P49682) | β-arrestin recruitment, antagonist | – | 1 µM | inhibition | -4%
Cc1cc(Cl)n(-c2ccc(F)cc2)n1 | USP5 | enzyme activity, inhibitor | – | 17 µM | inhibition | 28%
CC(=O)C12NC(C)(C)CC1(C)C(=O)C1=C2c2c(c3c4n2C(C)(C)CC2=C4C4(CC(C)(C)NC(C)(C4)C2=O)CC3(C)C)C(=O)C(C)(C)N1 (single isomer, unassigned; (+)) | KCNQ2 (Homo sapiens, UniProt O43526) | ion current, inhibitor, patch clamp | HEK-293T | 40 µM | inhibition | 8%
O=C(Nc1ccc(N2CCOCC2)c2nonc12)c1cc(-c2cccnc2)nc2ccc(Cl)cc12 | USP5 | enzyme activity, inhibitor | – | 17 µM | inhibition | 93%
N#Cc1ccnc(N2C(=O)CC[C@H]2C(=O)N(c2cncc(F)c2)[C@H](C(=O)NC2CC(F)(F)C2)c2ccccc2Cl)c1 | G6PD (Homo sapiens, UniProt P11413) | enzyme activity | – | 100 µM | inhibition | no inhibition

SMILES | tested on | assay | system | conditions | endpoint | value
Cl.Oc1ccc(Nc2nc(NCC3CCCO3)c3ccccc3n2)cc1 (stereo not drawn) | Coelenterazine h 2-monooxygenase | luciferase activity, inhibitor, luminescence counter-screen | – | concentration not given, test 3 new dilution | inhibition | 106% and 97.3%
NS(=O)(=O)c1ccc(CCNCc2ccc(-c3ccc(Cl)cc3)o2)cc1 | DRD3 (Homo sapiens, UniProt P35462) | enzyme activity, inhibitor | – | 10 µM | inhibition | 42.2%
O=C1C2=[N+]([O-])[C@H]3CCCC[C@H]3[N+]([O-])=C2c2ccccc21 | USP5 | enzyme activity, inhibitor | – | 17 µM | inhibition | 73%
CS(=O)(=O)c1ccc(-n2cc(C=NN=c3[nH]c(-c4ccc([N+](=O)[O-])cc4)cs3)c(-c3ccc(Br)cc3)n2)cc1 | PTGS2 | enzyme activity | – | 10 µM | inhibition | 73.7%
O=C(NN=C1c2ccccc2-c2nc3nonc3nc21)c1ccccc1O | USP5 | enzyme activity, inhibitor | – | 17 µM | inhibition | 59%
O=C1c2sc(-c3ccc(N4CCC(F)C4)nc3F)nc2CCN1c1cccnc1 (stereo not drawn) | L-type Ca2+ channel, dihydropyridine site | radioligand binding, BioPrint binding panel | – | 1 µM, added: antagonist radioligand | inhibition | -3%
CO[C@@H]1OC[C@@H](O)[C@H](O)[C@H]1O | PTGS2 | enzyme activity, inhibitor | – | 0.49 µg/mL | inhibition | 16.4%
COc1ccc(S(=O)(=O)N2CCc3ccccc3C2)cc1N1CCN(C(=O)c2ccc(F)cc2C(F)(F)F)CC1 | PPP2CA (Homo sapiens, UniProt P67775) | enzyme activity, inhibitor | – | 1 µM | inhibition | -10.4%
O=C1CCCC2=C1C1(O)C(=O)c3ccccc3C1(O)O2 (stereo not drawn) | USP5 | enzyme activity, inhibitor | – | 17 µM | inhibition | 97%
O=C1c2sc(-c3ccc(N4CCC(CO)CC4)nc3F)nc2CCN1c1cccnc1 | TNF-alpha (human) | radioligand binding, BioPrint binding panel | – | 1 µM, added: agonist radioligand | inhibition | -16%
NNC(c1nnnn1Cc1ccccc1)C1CCCCC1 (stereo not drawn) | Endothiapepsin (EAPA, Cryphonectria parasitica, UniProt P11838) | enzyme activity, inhibitor | – | 200 µM | inhibition | 14.1%
CC(=O)Nc1ccc(C2CCCCC2)cc1 | – | liver microsome stability | cynomolgus liver microsomes | 1 µM | hepatic clearance | 39 mL/min/kg
Cc1ccc(-n2c(C)cc(C(=O)CN3CCC(C)CC3)c2C)cc1 | USP5 | enzyme activity, inhibitor | – | 17 µM | inhibition | 0%
CCCCCCCCN(CCC(=O)Nc1ccccc1)C(=O)c1cccc(C#N)c1 | Protein-S-isoprenylcysteine O-methyltransferase | enzyme activity | Sf9 membranes | 50 µM, added: [3H]S-adenosylmethionine, biotin-farnesyl-L-cysteine | inhibition | 53%
CC(=O)N1CCN(CCN2C(C)=CC(=C(C#N)C#N)C=C2C)CC1 | USP5 | enzyme activity, inhibitor | – | 17 µM | inhibition | 0%
CC(C)Cc1ccc(-c2nn(-c3ccc(S(C)(=O)=O)cc3)cc2C=NN=c2[nH]c(-c3ccc(Br)cc3)cs2)cc1 | PTGS2 | enzyme activity | – | 0.01 µM | inhibition | 20.7%
Cc1nc2c(F)cc(-c3nc(Nc4ccc(CNC(=O)CCCCCCC(=O)NO)cc4)ncc3F)cc2n1C(C)C | CHEK2 (Homo sapiens, UniProt O96017) | enzyme activity, inhibitor | – | 1 µM | inhibition | 73%
CSc1scc2c1C(=O)C(=CN(C)C)CC2 | USP5 | enzyme activity, inhibitor | – | 17 µM | inhibition | 68%
CC(=O)n1cc([C@H]2C=C(C(=O)N3CCN(Cc4ccc5c(c4)OCO5)CC3)O[C@@H](OCc3ccc(CO)cc3)C2)c2ccccc21 | Coelenterazine h 2-monooxygenase | luciferase activity, inhibitor, luminescence counter-screen | – | concentration not given, test 1 | inhibition | 59% and 55.5%

Some of these lines once more:
SMILES | tested on | assay | system | conditions | endpoint | value
O=C(NN=C1c2ccccc2-c2nc3nonc3nc21)c1ccccc1O | USP5 | enzyme activity, inhibitor | – | 17 µM | inhibition | 59%
Cc1ccc(-c2nn(-c3ccc(S(C)(=O)=O)cc3)cc2C=NN=c2[nH]c(-c3ccc([N+](=O)[O-])cc3)cs2)cc1 | PTGS2 | enzyme activity | – | 0.01 µM | inhibition | 14%
